{"data": "Measured values pooled from the literature", "cell line": "MCF7", "note": "Protocols differ between the studies behind these lines. pEC50: −log10 of the molar value."}
{"Compound": "COc1ccc(/C=C/C(=O)c2ccc(NC(=O)c3ccccc3CN3C(=O)c4ccccc4C3=O)cc2)c(OC)c1", "assay": "annexin V/PI staining", "conditions": "IC50, 24 h", "how to read": "reference: untreated", "quantity": "early apoptotic cells", "value": "14.9 fold"}
{"Compound": "NS(=O)(=O)c1ccc(/N=N/c2ccc(O)c(/C=N/c3cc(Cl)ccc3O)c2)cc1", "assay": "MTT", "conditions": "48 h", "how to read": "reference: MCF10A IC50 over MCF7 IC50", "quantity": "selectivity index", "value": 2.4}
{"Compound": "CN1CCC2(CC1)C/C(=N\\NC(=O)Nc1ccccc1)c1ccccc1O2", "assay": "annexin V-FITC/PI", "conditions": "concentration not given, 24 h", "quantity": "necrotic cells", "value": "2.74%"}
{"Compound": "COc1ccc(NC(=O)CCc2nc3cc(Cl)ccc3[nH]c2=O)cc1", "assay": "annexin V-FITC", "conditions": "concentration not given", "quantity": "early apoptotic cells", "value": "2.05%"}
{"Compound": "O=C(O)C=Cc1ccc(C(=C2CCCCC2)c2ccc(O)cc2)cc1", "assay": "antagonist, real-time PCR", "conditions": "1 µM, added: 1 nM estradiol", "quantity": "PR mRNA level", "value": "no effect"}
{"Compound": "Nc1ccccc1NC(=O)c1cnccn1", "assay": "PI flow cytometry", "conditions": "IC50, 48 h", "quantity": "cells in G0/G1-phase", "value": "58.4%"}
{"Compound": "CC(=O)OC[C@H]1O[C@@H](Sc2sc(C(=O)c3ccc(C)cc3)c(N)c2-c2nc3ccccc3s2)[C@H](OC(C)=O)[C@@H](OC(C)=O)[C@@H]1OC(C)=O", "assay": "SRB", "conditions": "10 µM, 48 h", "how to read": "reference: untreated", "quantity": "growth", "value": "73.6%"}
{"Compound": "N=C(N)NCCC[C@H](NC(=O)[C@H](Cc1c[nH]c2ccccc12)NC(=O)[C@H](CCC(N)=O)NC(=O)[C@H](Cc1c[nH]c2ccccc12)NC(=O)[C@H](CCCNC(=N)N)NC(=O)[C@H](Cc1c[nH]c2ccccc12)NC(=O)[C@H](CCC(N)=O)NC(=O)[C@@H](N)Cc1c[nH]c2ccccc12)C(N)=O", "how to read": "reference: erythrocyte IC50 over MCF7 IC50", "quantity": "selectivity ratio", "value": "> 1.1"}
{"Compound": "CCCc1cc(O)nc(SCCOC(=O)[C@]2(C)CCC[C@]3(C)c4ccc(C(C)C)cc4CCC23)n1 (stereo partly shown)", "assay": "annexin V-FITC/PI flow cytometry", "conditions": "5 µM, 48 h", "quantity": "apoptotic cells", "value": "5.87%"}
{"Compound": "CCCCCCCCCC1N=C(N)N=C(N)N1c1ccc(Cl)cc1.Cl (racemic)", "conditions": "concentration not given", "quantity": "growth inhibition", "value": "≤ 100%"}
{"Compound": "CN(C)c1ccc(/C=C/c2cc(/C=C3\\Sc4ccccc4N3CCCN3CCCC3)c3ccccc3[n+]2C)cc1", "assay": "qRT-PCR", "conditions": "concentration not given", "quantity": "CTCF mRNA level", "value": "no effect"}
{"Compound": "CCC(=C(c1ccc(Cl)cc1)c1ccc(OCCN2CCCCCC2)cc1)c1ccccc1", "assay": "cell growth or viability", "conditions": "10 µM", "quantity": "inhibition", "value": "23.7%"}
{"Compound": "FC(F)(F)C1(c2ccc(CN3CCN(C(c4ccccc4)c4ccc(Cl)cc4)CC3)cc2)CC1 (stereo not shown)", "conditions": "72 h", "quantity": "pEC50", "value": 4.68}
{"Compound": "CCC[C@@H]1O[C@@H](Oc2c(-c3ccc(O)cc3)oc3cc(O)cc(O)c3c2=O)[C@H](OC(C)=O)[C@H](OC(C)=O)[C@H]1NC(C)=O", "assay": "inhibitor, immunoblot, measured: phospho-S6", "conditions": "25 and 50 µM, added: PMA", "quantity": "S6 phosphorylation", "value": "no effect"}
{"Compound": "O=C(c1ccc2ccccc2c1)c1cn(-c2ccccc2)nc1C1=Nn2c(Cc3nnc4n3N=C(c3nn(-c5ccccc5)cc3C(=O)c3ccc5ccccc5c3)CS4)nnc2SC1", "assay": "RT-PCR, measured: caspase-9", "conditions": "IC50, 48 h", "how to read": "reference: untreated", "quantity": "mRNA level", "value": "10.6 fold"}
{"Compound": "COc1ccc(NC(=O)C2C(=O)C(c3ccccc3)c3ccc4c(c32)C(=O)c2ccccc2C4=O)cc1 (stereo not shown)", "assay": "cell growth or viability", "quantity": "TGI", "value": "45.3 µM"}
{"Compound": "Cc1cc(/C=C/c2ccc(O)c(O)c2)[nH]n1", "conditions": "25 µM, 48 h", "how to read": "reference: untreated", "quantity": "GSH/GSSG ratio increase", "value": "~7 fold"}
{"Compound": "N=C(N)NCCC[C@H](NC(=O)[C@H](Cc1c[nH]c2ccccc12)NC(=O)[C@H](CCC(N)=O)NC(=O)[C@H](Cc1c[nH]c2ccccc12)NC(=O)[C@@H](N)CCCNC(=N)N)C(=O)N[C@@H](Cc1c[nH]c2ccccc12)C(=O)N[C@@H](CCC(N)=O)C(=O)N[C@@H](Cc1c[nH]c2ccccc12)C(N)=O", "how to read": "reference: erythrocyte IC50 over MCF7 IC50", "quantity": "selectivity ratio", "value": "> 2.6"}
{"Compound": "CC(Cc1ccc(Cl)cc1)=C(c1ccc(Cl)cc1)c1ccc(OCCCN(C)C)cc1", "assay": "cell growth or viability", "conditions": "10 µM", "quantity": "inhibition", "value": "1.65%"}
{"note": "A few entries again:"}
{"Compound": "CCCc1cc(O)nc(SCCOC(=O)[C@]2(C)CCC[C@]3(C)c4ccc(C(C)C)cc4CCC23)n1 (stereo partly shown)", "assay": "annexin V-FITC/PI flow cytometry", "conditions": "5 µM, 48 h", "quantity": "apoptotic cells", "value": "5.87%"}
{"Compound": "O=C(c1ccc2ccccc2c1)c1cn(-c2ccccc2)nc1C1=Nn2c(Cc3nnc4n3N=C(c3nn(-c5ccccc5)cc3C(=O)c3ccc5ccccc5c3)CS4)nnc2SC1", "assay": "RT-PCR, measured: caspase-9", "conditions": "IC50, 48 h", "how to read": "reference: untreated", "quantity": "mRNA level", "value": "10.6 fold"}
